Measured values pooled from the literature.
Protocols differ between the studies behind these lines. ± marks the error that the study gave.

| Compound | tested on | test | test system | conditions | scale | endpoint | result |
| --- | --- | --- | --- | --- | --- | --- | --- |
| CCCCCCCCN(CCC(=O)Nc1ccccc1)C(=O)c1ccccn1 | HGPS patient fibroblasts | – | – | 2 µM, 15 days | relative to: untreated | senescence-associated β-galactosidase activity | decreased |
| CO[C@@H]1[C@H](O)[C@@H](COP(=O)([O-])OP(=O)(O)CP(=O)(O)OP(=O)(O)OC[C@H]2O[C@@H](n3cnc4c(=O)[nH]c(N)nc43)[C@H](O)[C@@H]2O)O[C@H]1n1c[n+](C)c2c(O)nc(N)nc21 | – | – | rabbit reticulocyte lysate | 1 h, luciferase mRNA capped with compound | relative to: m7GpppG-capped mRNA | relative translation efficiency | 1.39 ± 0.33 |
| COc1ccc(CNc2nc3c(c(=O)[nH]2)[n+](C)cn3C2OC(COP(=O)(O)OP(=O)([O-])OP(=O)(O)OCC3OC(n4cnc5c(=O)[nH]c(N)nc54)C(O)C3O)C(O)C2O)cc1 (stereo not shown) | – | cap-dependent translation, inhibitor | rabbit reticulocyte lysate | concentration not given | relative to: m7GpppG | relative inhibitory potency | ~10 fold |
| CO[C@@H]1[C@H](O)[C@@H](COP(=O)(O)OP(=O)([O-])C(Cl)(Cl)P(=O)(O)OP(=O)(O)OC[C@H]2O[C@@H](n3cnc4c(=O)[nH]c(N)nc43)[C@H](O)[C@@H]2O)O[C@H]1n1c[n+](C)c2c(O)nc(N)nc21 | – | – | rabbit reticulocyte lysate | 1 h, luciferase mRNA capped with compound | relative to: m7GpppG-capped mRNA | relative translation efficiency | 1.71 ± 0.25 |
| COc1ccc2c(c1)C(C)(C)C(/C=C/C1=C(Oc3ccc(C(=O)NCCCCOc4cc(CN(Cc5ccccn5)Cc5ccccn5)cc(CN(Cc5ccccn5)Cc5ccccn5)c4)cc3)C(=C/C=C3/N(CCCCS(=O)(=O)[O-])c4ccc(OC)cc4C3(C)C)CCC1)=[N+]2CCCCS(=O)(=O)[O-].O=[N+]([O-])[O-].O=[N+]([O-])[O-].[99Tc+].[C-]#[O+].[C-]#[O+].[C-]#[O+].[Zn+2] | Staphylococcus aureus | bacterial binding, gamma counting | – | concentration not given, 10 min | relative to: total | bound activity | 15 ± 2.1% |
| C[n+]1cn(C2OC(COP(=O)(O)OP(=O)([O-])OP(=O)(O)OCC3OC(n4cnc5c(=O)[nH]c(N)nc54)C(O)C3O)C(O)C2O)c2nc(NCc3ccc(Cl)cc3)[nH]c(=O)c21 (stereo not shown) | – | cap-dependent translation, inhibitor | rabbit reticulocyte lysate | concentration not given | relative to: m7GpppG | relative inhibitory potency | ~10 fold |
| NS(=O)(=O)Nc1ncnc(OCCOc2ncc(Br)cn2)c1-c1ccc(Br)cc1 | – | metabolite formation | female Sprague-Dawley rat, liver microsomes | 50 mg/kg daily for 4 weeks | – | Vmax | 166 ± 16 pmol/min/mg |
| O=C(O)c1ccc(/C=C2\SC(=S)N(Cc3cccc(C(F)(F)F)c3)C2=O)cc1 | mouse BMDM | – | – | concentration not given, with: cytosolic LPS | – | noncanonical NLRP3 activation | inhibited |
| C[n+]1cn(C2OC(COP(=O)(O)OP(=O)([O-])OP(=O)(O)OCC3OC(n4cnc5c(=O)[nH]c(N)nc54)C(O)C3O)C(O)C2O)c2nc(NCc3ccccc3)[nH]c(=O)c21 (stereo not shown) | – | cap-dependent translation | rabbit reticulocyte lysate | – | relative to: m7GpppG-capped mRNA | relative translation efficiency | 3.52 ± 0.82 |
| CO[C@@H]1[C@H](O)[C@@H](COP(=O)(O)OP(=O)([S-])OP(=O)(S)OC[C@H]2O[C@@H](n3cnc4c(=O)[nH]c(N)nc43)[C@H](O)[C@@H]2O)O[C@H]1n1c[n+](C)c2c(O)nc(N)nc21 (mixture of isomers) | – | – | rabbit reticulocyte lysate | analog-capped luciferase mRNA | relative to: m7GpppG-capped mRNA | relative translation efficiency | 3.16 ± 0.76 |
